Results from different studies.
Lines come from different studies, so protocols differ. Numbers after ± are the reported error.
Nuclear receptor subfamily 2 group C member 2 ligand-binding domain: Nuclear receptor subfamily 2 group C member 2, ligand-binding domain (Homo sapiens, UniProt P49116)
Sequence of UniProt P49116 (whole entry, looked up): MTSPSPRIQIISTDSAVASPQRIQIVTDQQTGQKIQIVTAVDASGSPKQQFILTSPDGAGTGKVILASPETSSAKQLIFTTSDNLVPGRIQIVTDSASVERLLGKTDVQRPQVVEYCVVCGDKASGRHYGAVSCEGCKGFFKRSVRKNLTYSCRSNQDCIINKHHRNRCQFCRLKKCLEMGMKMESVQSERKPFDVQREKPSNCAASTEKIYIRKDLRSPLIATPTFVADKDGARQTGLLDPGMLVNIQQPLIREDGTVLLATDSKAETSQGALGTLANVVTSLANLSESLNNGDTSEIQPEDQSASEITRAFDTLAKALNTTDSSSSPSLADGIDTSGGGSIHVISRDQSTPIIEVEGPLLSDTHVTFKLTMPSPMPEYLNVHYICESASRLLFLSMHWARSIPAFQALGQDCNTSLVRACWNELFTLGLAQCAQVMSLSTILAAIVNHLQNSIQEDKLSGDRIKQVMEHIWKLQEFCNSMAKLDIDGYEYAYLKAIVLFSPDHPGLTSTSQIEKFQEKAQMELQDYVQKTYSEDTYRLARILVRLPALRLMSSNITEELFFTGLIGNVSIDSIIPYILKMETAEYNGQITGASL

Cn1cc(-c2ccc(-c3cncc(Cl)c3N3CCC4(CCNC4=O)CC3)cc2)cn1  log2 fold change (COLO 205; gene expression, microarray, refers to: PRDM8 mRNA; concentration not given, 2 h; reference: untreated cells): 5.99
NCCCOc1cc(NC(=O)c2cccc(C(=O)Nc3cc(OCCCN)c4ccccc4n3)n2)nc2ccccc12  ΔTm (human telomeric G-quadruplex DNA; FRET melting; 1 µM, pH 7.4, together with: 60 mM potassium): 31.4 ± 0.8 K
c1coc(-c2n[nH]cc2-c2ccnc3ccccc23)c1  log2 fold change (IKS1 (Candida albicans); kinase binding, MIB/MS competition; Candida albicans lysate; 10 µM; reference: DMSO): -0.17
O=C(O)c1ccc(O)c2ncccc12  viability (OCI-Ly1; 1 µM, 120 h): 164%
CCOC(=O)c1c(CSc2ccccc2)n(C)c2cc(Br)c(O)c(CN(C)C)c12  Kd (Nuclear receptor subfamily 2 group C member 2 ligand-binding domain; SPR imaging): 0.0315 nM
CCOC(=O)Nc1cc(-c2ccc(C)c(NS(C)(=O)=O)c2)nn2c(C)nnc12  viability (OCI-Ly1; 1 µM, 120 h): 3.54%
O=C(O)CNC(=O)Cc1ccccc1  sarcomere length (ventricular cardiomyocytes, C57BL/6 mouse; dose not given, 0.196 s): 1.62 µm
CNCC[C@@H](Oc1ccccc1C)c1ccccc1  Kd (Nuclear receptor subfamily 2 group C member 2 ligand-binding domain; SPR imaging): 0.122 nM
CC(=O)Nc1ccc(C(=O)Nc2ccccc2N)cc1  viability (OCI-Ly1; 0.5 µM, 120 h): 33.1%
NC(=O)c1cnc2[nH]ccc2c1N[C@@H]1[C@@H]2CC3C[C@H]1C[C@@](O)(C3)C2  change from baseline (flow cytometry, refers to: CD4+ effector T cells; Japanese healthy subjects, peripheral blood; oral, 10 mg twice daily, day 7): 0.12%
Oc1ccccc1-c1n[nH]cc1-c1ccnc2ccccc12  log2 fold change (KIN28 (Candida albicans); kinase binding, MIB/MS competition; Candida albicans lysate; 10 µM; reference: DMSO): -0.43

Excerpt of the above:
NC(=O)c1cnc2[nH]ccc2c1N[C@@H]1[C@@H]2CC3C[C@H]1C[C@@](O)(C3)C2  change from baseline (flow cytometry, refers to: CD4+ effector T cells; Japanese healthy subjects, peripheral blood; oral, 10 mg twice daily, day 7): 0.12%
